Assay results of several laboratories.
Parts stem from different laboratories: compare values within a part only. Changes are numbered by the printed parent chain.

Set 1 — technique: DHFR PCA, deep sequencing; medium: yeast; together with: (+)-ABA 200 µM; baseline: wild-type fitted maximum; direction: higher = stronger binding; endpoint: relative binding score
Target: ABI1, truncated, D143A, DHFR fusion (Arabidopsis thaliana)
Notes: methotrexate growth selection, single substitutions
Parent: PYL1, truncated, DHFR fusion (Arabidopsis thaliana); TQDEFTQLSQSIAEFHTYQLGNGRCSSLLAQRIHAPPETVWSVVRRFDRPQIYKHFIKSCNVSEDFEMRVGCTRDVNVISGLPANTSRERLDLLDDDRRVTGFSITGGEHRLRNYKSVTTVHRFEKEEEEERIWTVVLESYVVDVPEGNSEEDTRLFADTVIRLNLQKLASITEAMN
R88W: 81.1%
M176Q: 100%
P50T: 2.59%
I133L: 106%
M68Y: 98.1%
E109A: 93.2%
F15S: 73.3%

Set 2 — target: CCND3, cyclin fold, Cln2 fusion (human); technique: yeast growth competition, sequencing; medium: yeast; notes: weak parent motif; baseline: not given; direction: higher = stronger binding; endpoint: normalised enrichment score
Parent: E2F1 docking peptide (human); PPVKRRLDLETDH
QPVKRRLDLETDH [P1Q]: 0.0928
PPVDRRLDLETDH [K4D]: 0.112
PPVKRRLDLITDH [E10I]: 0.138
PPVKRRLDLETDP [H13P]: 0.156
PPVKRRLDLECDH [T11C]: 0.11
PPVKRRLQLETDH [D8Q]: 0.0634
PPGKRRLDLETDH [V3G]: 0.0707
PPVKRRLDLETKH [D12K]: 0.16

Set 3 — technique: competition protein-binding microarray; molecule type: double-stranded DNA, one strand shown; medium: in vitro; concentration: 2 µM; together with: Cbf1 competitor, 0.05 µM; direction: higher = stronger binding; endpoint: fluorescence intensity
Target: Phosphate system positive regulatory protein PHO4, full length, GST-tagged (PHO4, Saccharomyces cerevisiae, UniProt P07270, residues 1-312)
Notes: whole 60-bp probe, lowest competitor level
Construct (chain): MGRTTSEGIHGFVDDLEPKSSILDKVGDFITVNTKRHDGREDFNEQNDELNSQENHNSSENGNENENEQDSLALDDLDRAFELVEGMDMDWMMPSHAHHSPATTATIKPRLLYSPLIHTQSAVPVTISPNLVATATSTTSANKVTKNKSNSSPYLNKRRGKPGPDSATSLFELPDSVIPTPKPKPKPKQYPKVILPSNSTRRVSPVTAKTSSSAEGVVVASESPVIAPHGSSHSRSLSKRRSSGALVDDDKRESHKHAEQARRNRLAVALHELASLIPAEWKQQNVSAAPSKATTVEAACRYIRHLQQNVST
AAACAAACTACATCGCACGTGACGGATAACTATACGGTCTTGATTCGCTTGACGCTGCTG: 17500 a.u.
CTTCTGTAAATTTGCCCCGTGGGTGGACGCGCCCCGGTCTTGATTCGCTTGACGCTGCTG: 10300 a.u.
TGGAATCGAGTGTCGCAATAGACCAAACTGAAGTACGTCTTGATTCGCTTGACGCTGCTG: 3580 a.u.
AGGAAAAGTTACCTGCGCATGCCGATGTCTACACTTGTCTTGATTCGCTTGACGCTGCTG: 8360 a.u.
CATACCCAACCTTGTATCGTGGGTGAAGATATTTGTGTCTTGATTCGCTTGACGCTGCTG: 8790 a.u.
ATAAAGTGCGTAATGTGCGTGCTAAAAAAGCTCACTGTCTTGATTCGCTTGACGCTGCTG: 8840 a.u.
AGAAAGACCCAGAGGCACATGCAAGATAGTTGTGCCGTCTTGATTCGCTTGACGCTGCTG: 10500 a.u.
AGAATTGGAAACCATCACGTACTCCGCCACCAGCAAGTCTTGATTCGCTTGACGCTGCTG: 5430 a.u.
AAACAATTGGACGGCCACGTGGCCGCTCATGTAAGGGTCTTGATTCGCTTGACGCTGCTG: 18500 a.u.
CTTCTGTAAATTTGTCACCGCACTTGACGCGCCCCGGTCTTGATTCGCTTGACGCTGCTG: 3310 a.u.
CTGCTTTAGAATTTGTCCGTGACGGGTACTCTAACAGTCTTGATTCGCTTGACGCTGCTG: 4120 a.u.

Mixed results
PhoQ, residues 284 288 289 292 302 303 SLSVQF  fold induction (PhoP, residues 12 14 15 18 19 LWHCS (Escherichia coli, UniProt P23836); Sort-seq, measured: YFP reporter; E. coli; PhoQ-PhoP variant library, together with: 10 µM Mg2+; baseline: high Mg2+ state, higher = stronger signaling): 4.7
